# Measured values of several laboratories.
# A part holds a random share of what one study measured.

# Set 1
# Target: Histone acetyltransferase KAT6A, both winged helices, GST fusion (KAT6A, Homo sapiens, UniProt Q92794, residues 1-181)
# Method: protein binding microarray
# Molecule type: double-stranded DNA, one strand shown
# Medium: in vitro
# Concentration: not given
# Notes: 8-mer, flanks averaged, mean of 2 arrays, mostly near background
# Baseline: not given
# Reading: higher = stronger binding
# Residues (chain): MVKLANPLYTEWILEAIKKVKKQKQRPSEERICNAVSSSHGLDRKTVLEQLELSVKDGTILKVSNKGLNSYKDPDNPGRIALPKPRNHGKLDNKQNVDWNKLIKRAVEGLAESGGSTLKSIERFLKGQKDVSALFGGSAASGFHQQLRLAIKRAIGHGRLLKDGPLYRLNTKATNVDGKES
Strand,E-score
CGCTGAAG,0.156
AGGGAAAC,-0.0426
GGGATAGA,-0.0636
AATCCGGG,0.12
ACCCCAAG,-0.257
GCGCGGTA,0.38
CACAGCGA,0.102
ACATGCAG,-0.0566

# Set 2
# Target: RING finger protein unkempt homolog, zinc fingers 1-6, SBP tag (UNK, Homo sapiens, UniProt Q9C0B0, residues 30-357)
# Sequence of UniProt Q9C0B0 (30-357, looked up): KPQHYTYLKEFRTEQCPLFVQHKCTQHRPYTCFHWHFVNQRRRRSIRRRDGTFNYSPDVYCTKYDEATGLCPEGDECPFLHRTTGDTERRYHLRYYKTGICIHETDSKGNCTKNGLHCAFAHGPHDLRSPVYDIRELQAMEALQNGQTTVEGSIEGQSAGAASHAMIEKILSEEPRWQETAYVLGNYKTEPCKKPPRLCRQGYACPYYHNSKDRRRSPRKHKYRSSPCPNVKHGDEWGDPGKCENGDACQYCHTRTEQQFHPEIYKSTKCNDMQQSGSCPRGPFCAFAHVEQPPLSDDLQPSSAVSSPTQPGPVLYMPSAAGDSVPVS
# Method: RNA Bind-n-Seq
# Molecule type: RNA
# Medium: in vitro
# Concentration: 100 nM
# Notes: RNA with constant flanks, vertebrate orthologous sites, ends assumed
# Baseline: input RNA pool
# Reading: higher = stronger binding
# All sequences stand within: GGGAGUUCUACAGUCCGACGAUC … CAACAGAGGAUUGAGCAUCA
Strand,bound/input enrichment [ratio]
UCCCAGCACUCUGAUAAAAAGUGUGGACUGGUUGCUUGUAUUUUCCUUAUUCUUUUUAAUCAGUUUUAUUAUGUACGCUACCAUUCGAACUGAGAGUAUUCGGUGGCUGAUUCCGGGACA,0.487
UGGUUUUAAAAAAGGAGCUAUUAGGGCAAAAAAUGAUAAAUGUCACAUGUGCCAAGCUAACUGUUCGUCACUGAAAGCUCUAGAAGGUUCCAGGCUGGGGAUGUAGUUCAGUAGUGCAAU,0.568
UUGGGGGGCAGCCGGUGGGGGAAUUCCCUGCCUUGGCCUUGCCUCCCCCCUUCCUGCUACCUGCCCCUAGUUUUUUUUUUUUAACCACCAUGUGAUUAAGGUCGGCGCUGCCUCCCCCGA,4.3
UGUAUGUUUGGGUUAGAUGGGAGGGUGGGGCAGGACAGUAUGGAAUCUCUAUAGAGUGUGUGGGUAGAUAGGAUACACACUUAGCUCUAAGUGGGCCUUGAUGUUUAAAAACCUAGGAGU,0.367
GGAGAUAAUGAAUAUUAAAGAAACAUUCUCGUCUUCCUUUACCUUUUGUCCCCUAAUACCUAGUCUACUUUUUAAACUUUCAGACUUCACUGCUUUUUGAAUUCAUAAUUCUAAUUUUCA,0.851
CAUCUCUCAUUUUAUAUGUUCAAAAGAUCUUUGAAUCUUUGAACAAUUGUUAGUUUUAAUUAGCUCUGCCCUCAUGAAGUGUUAUUAUAAUUCACCACAAACAGAUCUCUGUCUGAAUUA,1.69
CAUGUCCUUGUUACUGUGGUAUUUAAAAUAUCCAUAGUACUCACUUUUUCCAAAUGAUUCUAUUAAUUGCCUAGAAAUAUCUCUUAUCUAUUAUUUAUCAAUAUUUCCCAGUAUUUUUAU,0.808
CCAGUCUUCCACUUAGGAUCGGCCUCAAAUCUAUAGAAUUUAUGACAAUUGUGUAUCUACUUAGGUUGACGUUAAUAUUUUUUUAUUAGUCUGUAAAUAAAGAUGGCAUCUUCUAUAUUA,0.896

# Set 3
# Target: Sal-like protein 4, full length isoform A (SALL4, Homo sapiens, UniProt Q9UJQ4, residues 1-1053)
# Sequence of UniProt Q9UJQ4 (whole entry, looked up): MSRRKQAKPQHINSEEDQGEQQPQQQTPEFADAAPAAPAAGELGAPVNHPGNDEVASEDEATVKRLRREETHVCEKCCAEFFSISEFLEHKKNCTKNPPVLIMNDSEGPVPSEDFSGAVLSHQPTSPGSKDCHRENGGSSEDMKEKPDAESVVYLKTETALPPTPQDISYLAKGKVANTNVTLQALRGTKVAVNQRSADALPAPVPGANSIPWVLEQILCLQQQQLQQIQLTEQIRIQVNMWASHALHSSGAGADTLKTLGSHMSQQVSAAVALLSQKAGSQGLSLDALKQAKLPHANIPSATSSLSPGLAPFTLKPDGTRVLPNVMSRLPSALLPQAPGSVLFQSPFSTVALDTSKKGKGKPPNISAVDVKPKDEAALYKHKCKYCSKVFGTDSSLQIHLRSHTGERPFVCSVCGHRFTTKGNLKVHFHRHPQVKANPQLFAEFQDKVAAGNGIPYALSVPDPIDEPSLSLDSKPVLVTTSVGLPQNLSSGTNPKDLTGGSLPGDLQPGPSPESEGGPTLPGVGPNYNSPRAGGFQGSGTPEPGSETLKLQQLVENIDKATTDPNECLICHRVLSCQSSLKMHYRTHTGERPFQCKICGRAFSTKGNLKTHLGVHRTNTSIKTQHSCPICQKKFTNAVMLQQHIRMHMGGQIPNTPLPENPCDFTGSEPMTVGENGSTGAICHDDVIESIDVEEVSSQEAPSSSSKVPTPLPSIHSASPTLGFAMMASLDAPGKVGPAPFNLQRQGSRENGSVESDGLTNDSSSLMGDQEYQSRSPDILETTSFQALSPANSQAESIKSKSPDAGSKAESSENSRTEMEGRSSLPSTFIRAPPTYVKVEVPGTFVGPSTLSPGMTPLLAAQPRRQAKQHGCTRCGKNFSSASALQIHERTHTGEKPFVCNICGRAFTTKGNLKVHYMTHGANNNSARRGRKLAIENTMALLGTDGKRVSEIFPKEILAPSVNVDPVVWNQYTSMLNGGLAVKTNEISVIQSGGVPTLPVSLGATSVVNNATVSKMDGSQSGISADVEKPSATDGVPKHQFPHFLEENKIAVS
# Method: universal PBM
# Molecule type: double-stranded DNA, one strand shown
# Medium: in vitro
# Concentration: 600 nM
# Notes: 8-mer, flanks averaged, mean of replicates
# Reading: higher = stronger binding
Strand,E-score
ACCATCTC,-0.0463
GCCGCATA,0.0384
CTGCCGCC,-0.413
ACAAAATC,0.129
CACCTCCG,-0.238
AAGTGTTG,0.178
AGCTCGCG,-0.0679
CTTCGACC,-0.22

# Further values, each from its own experiment
Sequence,target,effect on,molecule type,concentration,measurement,result
KCRVKMEKL,"HLA class I histocompatibility antigen, A alpha chain, allele A*80:01 (Homo sapiens, UniProt P04439)",peptide-MHC binding,peptide,concentration not given,binding,inactive

# A few entries again (set 3):
Strand,E-score
CACCTCCG,-0.238
AAGTGTTG,0.178
